Measured values from different studies.
Every numbered part comes from another study and shows a few of its results, in no order. Substitutions count along the parent as printed.

Study 1 — technique: protein binding microarray; form: double-stranded DNA, one strand shown; sample: in vitro; tested at: not given; relative to: not given; reading: higher = stronger binding; measurement: E-score
Target: Histone acetyltransferase KAT6A, winged helix 1, GST fusion (KAT6A, Homo sapiens, UniProt Q92794, residues 1-85)
Notes: 8-mer, flanks averaged, mean of 2 arrays, mostly near background
Residues (chain): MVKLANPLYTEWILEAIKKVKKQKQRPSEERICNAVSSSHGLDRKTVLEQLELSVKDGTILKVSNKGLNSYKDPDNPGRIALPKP
ATCTGTGG: -0.235
CAAAGACA: -0.212
GAGTGAAA: -0.209
AACGGATA: 0.147
GCTCATGA: -0.0433
ACTGTGCT: -0.102
ACATGAGT: 0.0516
AAACCGGT: 0.255
ACCGTGAG: 0.0687
CCAGCTCG: -0.0921
GTTTCGAA: 0.0622
AGCGTAAG: 0.191
AAGTGGGG: -0.186
CCTTATAG: -0.11
CATACGGA: 0.169
AACTTTTA: -0.0639
CAATGCTA: -0.23
ACCTTATG: -0.196
GGAGATCC: -0.0194
GGCCAGGA: -0.0338
GGCCTCCC: 0.02
CGGTTGAC: 0.243
ATCTCAGC: -0.00764
AGGATTGA: -0.156
CTCAGTAA: 0.0523

Study 2 — technique: aptamer microarray, sandwich; form: DNA with 2'F-ANA; sample: in vitro; tested at: 200 nM; together with: Cy3 exosite-II aptamer, 400 nM; reading: higher = stronger binding; measurement: mean fluorescence intensity; strand: GGTTGGTGTGGTTGG
Target: Prothrombin, mature alpha-thrombin (F2, Homo sapiens, UniProt P00734)
Notes: whole 15-mer aptamer, many near background
2'F-ANA at 1 2 4 5 9 10 12 13 14: 60 a.u.
2'F-ANA at 1 3 4 5 7 8 13 14: 49.9 a.u.
2'F-ANA at 2 3 4 5 6 7 10 11 12 15: 56.1 a.u.
2'F-ANA at 1 2 4 5 6 7 11 12 13 14 15: 105 a.u.
2'F-ANA at 4 8 9 12 14: 112 a.u.
2'F-ANA at 1 3 5 8 9 11 12 13 14: 59.2 a.u.
2'F-ANA at 4 7 9 10 11 12 13: 81.9 a.u.
2'F-ANA at 1 3 7 8 11 12 13: 488 a.u.
2'F-ANA at 2 5 6 8 9 10 13 15: 49.7 a.u.
2'F-ANA at 2 4 5 7 11 12: 145 a.u.
2'F-ANA at 3 5 7 9 11 13: 89.5 a.u.
2'F-ANA at 1 3 9 12 13 14 15: 105 a.u.
2'F-ANA at 2 5 6 7 9 12 13: 94.7 a.u.
2'F-ANA at 1 3 11 14 15: 82.9 a.u.
2'F-ANA at 3 6 7 8 9 13: 845 a.u.
2'F-ANA at 2 3 5 8 10 14 15: 50.4 a.u.
2'F-ANA at 5 6 7 9 10 13: 44.9 a.u.
2'F-ANA at 2 4 5 7 10 13: 46.8 a.u.
2'F-ANA at 1 2 3 6 7 10 13 14: 76.4 a.u.
2'F-ANA at 1 2 4 10 12 14 15: 46.3 a.u.
2'F-ANA at 2 6 7 10: 204 a.u.
2'F-ANA at 1 2 3 4 5 6 7 10 11 13 15: 57 a.u.
2'F-ANA at 1 2 4 6 7 8 9 10 12 14 15: 46.2 a.u.
2'F-ANA at 1 2 7 9 12 14 15: 89.9 a.u.
2'F-ANA at 2 3 4 8 9 10 12 14 15: 180 a.u.

Study 3 — technique: DHFR PCA, deep sequencing; sample: yeast; together with: (+)-ABA 0.0091 µM; relative to: wild-type fitted maximum; reading: higher = stronger binding; measurement: relative binding score
Target: ABI1, truncated, D143A, DHFR fusion (Arabidopsis thaliana)
Notes: methotrexate growth selection, single substitutions
Starting sequence: PYL1, truncated, DHFR fusion (Arabidopsis thaliana); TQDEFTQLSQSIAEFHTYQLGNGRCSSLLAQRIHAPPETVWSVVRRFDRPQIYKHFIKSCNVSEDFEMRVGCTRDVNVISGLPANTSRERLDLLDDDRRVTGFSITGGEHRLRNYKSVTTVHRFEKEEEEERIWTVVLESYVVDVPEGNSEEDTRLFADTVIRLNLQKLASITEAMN
S150Q: 7.31%
A158M: 17.2%
E4H: 6.6%
I52N: 4.43%
L28D: 2.24%
Y18F: -1.21%
T106N: 3.08%
S42G: 17.1%
E139A: -1.2%
C60Q: -0.69%
T160Q: 3.76%
V78C: 30.8%
S59A: 13.8%
R49M: 17.6%
G81D: 7.3%
D144W: -1.87%

Study 4 — target: CCNE2, cyclin fold, Cln2 fusion (human); technique: yeast growth competition, sequencing; sample: yeast; notes: strong parent motif; relative to: not given; reading: higher = stronger binding; measurement: normalised enrichment score
Starting sequence: WEE1 docking peptide (human); HKTFRKLRLFDTP; partner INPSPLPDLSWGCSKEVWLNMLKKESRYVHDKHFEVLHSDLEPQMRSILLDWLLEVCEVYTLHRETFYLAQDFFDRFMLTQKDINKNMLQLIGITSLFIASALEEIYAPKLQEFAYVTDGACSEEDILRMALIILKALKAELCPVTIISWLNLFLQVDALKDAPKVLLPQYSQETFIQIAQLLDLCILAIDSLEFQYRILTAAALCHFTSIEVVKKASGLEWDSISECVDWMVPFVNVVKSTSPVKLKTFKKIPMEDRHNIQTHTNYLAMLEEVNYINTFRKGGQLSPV
R5K: 0.168
R5Y: 1.04
T12D: 1.51
H1I: 2.76
F10P: 0.549
T12C: 0.491
K6H: 0.365
H1T: 1.17
F4D: -0.198
F4T: 1.07
H1Y: 0.147
T3P: 0.513
F10A: 1.01
H1C: 1
H1W: 1.29
D11S: 0.938

Study 5 — technique: RNA Bind-n-Seq; form: RNA; sample: in vitro; tested at: 365 nM; relative to: no-protein control; reading: higher = stronger binding; measurement: RBNS enrichment (R)
Target: RNA binding protein fox-1 homolog 2, RRM domain, GST-SBP tag (RBFOX2, Homo sapiens, UniProt O43251-10, residues 100-194)
Notes: natural RNA segment, single round, ends assumed
Construct (chain): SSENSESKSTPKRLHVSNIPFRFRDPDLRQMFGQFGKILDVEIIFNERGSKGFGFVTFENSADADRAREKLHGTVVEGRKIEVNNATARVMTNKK
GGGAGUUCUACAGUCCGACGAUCACCCAUUCCCUGCUUGCGCCUAGGGUGUUUUCCAGAUAGCCCAGAGUUCCAGCUUUGACAGCCUGAUGACCUCCAUUUUCAUAUGAAUGAUGCCUGCACCCCCACACCUCUGGAAUUCUCGGGUGCCAA: 4.69
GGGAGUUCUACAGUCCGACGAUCGGCCCAGAGUCUGAAGAAAUGGCACAGGGACAGUGAAUGGUAGUGUUGCCACCCUGUGCUGAGGCCUGAGGCCUCUUCCUCAGCUUUAUCUCCCUUUCCUUCACUCAAGGUGGAAUUCUCGGGUGCCAA: 0.581
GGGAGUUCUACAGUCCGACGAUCAUAUAUCAGAAUUACUUUAUAGUUUGAAAGCACUUUGCACACAUUUCCUGUAUAUAAAGGAUGUAAUUACAGGAUAUAGUGGUAAUGCAUUAAAACAUGAACCUCAUUUUUGGAAUUCUCGGGUGCCAA: 9.7
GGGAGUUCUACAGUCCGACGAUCGGGCUGUUUUAUCUUCCCUGAGUGCCUGGGUCUCCCUCCCUCACUUCUGCCCUUUCCCUUCCUCCUCCUCUUCUCCUCCCUCUUCCCUCAUCUCCCCCCUCCUUCCUCUGUGGAAUUCUCGGGUGCCAA: 1.39
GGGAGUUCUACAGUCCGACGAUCUUUCUUAAGGAUGCUGAGGGCAUGGGGCCAGGACCAGGGGAGAGGCACAGCUCCUUCCUGAGCAGCCUCUCACCACUGCCACAAGGCUCCCUAAUGCUGGUCUCUGCUCCUGGAAUUCUCGGGUGCCAA: 0.289
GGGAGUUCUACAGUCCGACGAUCUUUUUUAAACCUGAUAUUUUCAUUCCUAAUUGAGUGACAGCCAUCUUUUAAGGUGUUGGGCAUGGAACCCCAGGCCUUACCUGCUUGGCAAGUGCUUUACCCCCGAACUAUGGAAUUCUCGGGUGCCAA: 0.413
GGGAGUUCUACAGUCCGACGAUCAGGACUCAAAGGCAAGGUGCACGCAGAGGACGUUUGAGUCUGGGAUGAAGCAUGUACGUAUUAUUUAUAUGAUGGAAUUUCACGUUUUUAUGUAAGCAUGAAACACAGGCUGGAAUUCUCGGGUGCCAA: 15
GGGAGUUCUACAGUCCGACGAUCACCCCUUUUUAUACAGAUGUUUUUAUAUGUGUGUGCUCAGGCCUGCCGAGAUGCAGGGCAAAGUUGCUGUGGCAUCUUUGUUCCUCUCCCUGGGUCUGCACUCCCUCCCCUGGAAUUCUCGGGUGCCAA: 0.41
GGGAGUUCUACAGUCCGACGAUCCACAUUCCUGCAGACAGCUAGUUGUUUUAUAGAAAUGUUAGGUUUCAUGUGUGUUACUAUUAGGUAUAUAUAGGCUAGAUUGUGCCCACUAUCCUGGAAGGUGGCAAGUUUGGAAUUCUCGGGUGCCAA: 1
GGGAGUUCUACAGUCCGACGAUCCUGUACGGAAUGCCCUUUGCUAGCCAUGGGCUGGUCACCAGAUUGUUUUGUAAUGCCCGCCCCUUGCCUCGAUAUUGCCAGUUUCUUGUGCAAUAAACAAUCAGCAGCUGUGGAAUUCUCGGGUGCCAA: 1.96
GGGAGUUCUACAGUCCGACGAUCAGUCAUAUGUUGUUUGGCAUUCUGCCUAACCCAGUCUCCCUUCCCAGAGUCAUGGACCUCUCUGUUGCUUUAUGUUGGUCAUGUCCCUGACUGUCCAGAUUUCCUCCCACUGGAAUUCUCGGGUGCCAA: 0.652
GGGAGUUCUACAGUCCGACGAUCGUGGCAACCUUGCCUUCCUGACCUCAGCGGCCCUUCUGUUCCAUCCUCUGUGGGCAGGGGUGUGGCUUUGUUUUCCUCCCUCGUUUGCUUCCACCUCGUGCACAGCGCUCUGGAAUUCUCGGGUGCCAA: 0.533

A few entries again (study 1):
CCTTATAG: -0.11
CATACGGA: 0.169
AACTTTTA: -0.0639
CAATGCTA: -0.23
ACCTTATG: -0.196
GGAGATCC: -0.0194
GGCCAGGA: -0.0338
GGCCTCCC: 0.02
CGGTTGAC: 0.243
ATCTCAGC: -0.00764
